Published values from different studies.
“And” joins repeats or separate records; there may be more than shown. ± gives the spread as reported.

With CN([O-])C(=O)CN1CCN(CC(=O)N(C)[O-])CCN(Cc2ccccn2)CC1.[89Zr+4] the tracer uptake was 0.65 %ID/g (mouse, pancreas; intravenous, 4 h).
CC(C)[C@H](NC(=O)[C@H](Cc1c[nH]c2ccccc12)NC(=O)[C@H](CCCNC(=N)N)NC(=O)[C@H](CCCNC(=N)N)NC(=O)[C@@H](NC(=O)[C@@H](NC(=O)[C@H](CCCNC(=N)N)NC(=O)[C@@H](NC(=O)[C@@H](NC(=O)[C@H](CCCNC(=N)N)NC(=O)[C@H](CCCNC(=N)N)NC(=O)[C@@H](NC(=O)[C@H](Cc1c[nH]c2ccccc12)NC(=O)[C@H](CCCNC(=N)N)NC(=O)[C@H](CCCNC(=N)N)NC(=O)[C@@H](NC(=O)[C@H](CCCNC(=N)N)NC(=O)[C@H](CCCNC(=N)N)NC(=O)[C@@H](NC(=O)[C@H](Cc1c[nH]c2ccccc12)NC(=O)[C@H](CCCNC(=N)N)NC(=O)[C@@H](N)CCCNC(=N)N)C(C)C)C(C)C)C(C)C)C(C)C)C(C)C)C(C)C)C(C)C)C(=O)N[C@@H](CCCNC(=N)N)C(=O)N[C@@H](CCCNC(=N)N)C(=O)O: “blood urea nitrogen” 15.3 mg/dL (CD1 mouse, plasma; intravenous, 15 mg/kg, 16 h, [14C]-labelled compound).
With CC(C)C[C@H](NC(=O)[C@@H](CCCCNC(=O)[C@@H](Cc1ccccc1)NC(=O)CCCCCCCNC(=O)CN1CCN(CC(=O)O)CCN(CC(=O)O)CCN(CC(=O)O)CC1)NC(=O)[C@H](Cc1ccc(O)cc1)NC(=O)[C@H](CO)NC(=O)[C@H](Cc1c[nH]c2ccccc12)NC(=O)[C@H](Cc1c[nH]cn1)NC(=O)[C@@H]1CCC(=O)N1)C(=O)N[C@@H](CCCNC(=N)N)C(=O)N1CCC[C@H]1C(=O)NCC(N)=O [indium-111 labelled] the tissue uptake was 0.34 ± 0.01 %ID/g (biodistribution; male athymic nude mice, DU-145 prostate cancer xenograft, bone; intravenous, 0.037 MBq, 2 h post-injection).
With CC[C@H](C)[C@H](NC(=O)CNC(=O)[C@H](C)NC(=O)[C@H](CC(=O)O)NC(=O)[C@H](CO)NC(=O)[C@H](C)NC(=O)[C@H](CC(C)C)NC(=O)[C@H](CCCCN)NC(=O)[C@H](CCCCN)NC(=O)[C@H](CCSC)NC(=O)[C@H](CC(N)=O)NC(=O)[C@H](Cc1ccccc1)NC(=O)[C@H](CC(=O)O)NC(=O)[C@@H](N)CCSC)C(=O)N[C@@H](Cc1c[nH]c2ccccc12)C(=O)N[C@@H](Cc1ccccc1)C(=O)N[C@H](C(=O)N[C@@H](CCCNC(=N)N)C(=O)N[C@@H](C)C(=O)N[C@H](C(=O)N[C@@H](CCC(N)=O)C(=O)N[C@@H](Cc1ccccc1)C(=O)N[C@H](C(=O)N[C@@H](CCC(=O)O)C(=O)N[C@@H](CCC(=O)O)C(=O)N[C@@H](CCCCN)C(=O)N[C@@H](Cc1ccccc1)C(=O)NCC(=O)N[C@@H](CCC(N)=O)C(=O)N[C@@H](C)C(N)=O)[C@@H](C)O)C(C)C)[C@@H](C)O the fractional helicity was 32.4% (circular dichroism; ~60% TFE).
For CCN(CC)c1ccc2c(c1)O[B-]1(c3ccccc3C)OC(=O)C(c3ccccc3)=N[N+]1=C2 (stereo not shown), “molar absorption coefficient” read 59000 M⁻¹ cm⁻¹ (toluene).
With CC[C@H](C)[C@@H](C(=O)N[C@@H](CC(C)C)C(=O)N[C@@H](CO)C(=O)N[C@@H](CO)C(=O)N[C@H](C(=O)N[C@@H](CCC(=O)O)C(=O)N[C@H](C(=O)NCC(=O)N[C@@H](CO)C(=O)N[C@@H](CC(N)=O)C(=O)N[C@H](C(=O)N1C[C@H](O)C[C@H]1C(N)=O)[C@@H](C)O)C(C)C)[C@@H](C)O)N(C)C(=O)[C@H](C)NC(=O)CN(C)C(=O)[C@H](Cc1ccccc1)NC(=O)[C@H](CO)NC(=O)[C@H](CO)NC(=O)[C@H](CCCNC(=N)N)NC(=O)[C@H](CCC(N)=O)NC(=O)[C@H](CC(C)C)NC(=O)[C@H](Cc1ccccc1)NC(=O)[C@H](CCCC(=O)O)NC(=O)[C@H](C)NC(=O)[C@H](CC(C)C)NC(=O)[C@H](CCCNC(=N)N)NC(=O)[C@H](CCC(=O)O)NC(=O)[C@@H](NC(=O)[C@H](C)NC(=O)[C@@H]1CCCCNC(=O)C[C@H](NC(=O)[C@H](CCCNC(=N)N)NC(=O)CC[C@H](NC(=O)CCCCCCCCCCCCCCCCCCC(=O)O)C(=O)O)C(=O)NCC(=O)N[C@@H]([C@@H](C)O)C(=O)N[C@@H](C)C(=O)N[C@@H]([C@@H](C)O)C(=O)N1)[C@@H](C)O the chemical degradation was no more than 3% (RP-UPLC; formulation, phosphate buffer, propylene glycol, mannitol, NaCl; 1 weeks, pH 6.1, 40 °C).
CCC(C(=O)Nc1ccc(C(N)=O)c(F)c1)n1cc(OC)c(-c2cc(Cl)ccc2-n2cc(C(F)(F)F)nn2)cc1=O (stereo not shown): “mild adverse events” 6.7% (healthy male humans; 50 mg, IR formulation, fasted).
O=C([O-])CN1CCN(CC(=O)[O-])CCN(C(CO)C(O)CO)CCN(CC(=O)[O-])CC1.[Dy+3] (stereo not shown) — result for “total plasma clearance”: 0.11 L/h/kg (ICP-MS; female cynomolgus monkey, plasma; intravenous bolus, 0.1 mmol/kg, lanthanide mixture, geometric mean).
CCc1cnc(NC(=O)c2cc(S(=O)(=O)N3CCOCC3)ccc2N(C)C2CCCC2)s1 has a Glucose of 240 mg/dL (mouse, serum; 10 mg/kg, 3 doses).
For COc1ccc2c(c1)CN(C(=O)CCN1CCC(Cc3ccccc3)CC1)CCS2, “maximum QTcB change” read 50.8 ms (paroxysmal AF patients; oral, 540 mg, 90 min; baseline: baseline).
O=C(Nc1cnccc1-c1ccc([18F])cc1)c1ccnc(NC(=O)C2CC2)c1 has an SUV of 1.69 (FVB/NJ mice (both sexes), bladder; intravenous, dose not given, 120 min, added: tariquidar 15 mg/kg i.v. pre-dose).
For CCC(=O)N(C)c1ccc(Cl)c(Cl)c1, the plasma concentration was 44.6 ng/mL (female C57BL/6 mice; oral, 10 mg/kg, 2 h).
CN(O)C(=O)CCC(=O)NCCCN(CCCCN(CCCNC(=O)CCC(=O)N(C)O)C(=O)CCC(=O)N(C)O)C(=O)CCC(=O)N(C)O.[89Zr] gave an intact compound of 99 ± 1% (0.9 % NaCl saline; 5 days, pH 4.5, 37 °C).
CCCCN1C(=O)c2cccc3c(NCCCCCN4CCOCC4)ccc(c23)C1=O — result for “molar extinction coefficient”: 5820 M⁻¹ cm⁻¹ (acetonitrile).
COCC1CN(C2CCN(c3cc(OC)c(Nc4ncc(Br)c(Nc5ccc6c(c5P(C)(C)=O)OCCO6)n4)cc3C)CC2)C1 has a Cmin of 509 ng/mL (EGFR-mutant NSCLC patients, plasma; oral, 150 mg multiple doses, geometric mean).
CCCCN1C(=O)c2cccc3c(NCCCCCCCCCCN4CCOCC4)ccc(c23)C1=O: “molar extinction coefficient” 11400 M⁻¹ cm⁻¹ (water; pH 6.0).
For OC1(C(F)(F)F)CCN(c2nc(Nc3ccnc(C(F)(F)F)c3)nc(-c3cccc(C(F)(F)F)n3)n2)C1 (stereo not shown), the MRT(0-inf) was 24.6 ± 4.21 h (Sprague-Dawley rat, both sexes, plasma; oral gavage, 5 mg/kg, day 1).
Cc1cc(-c2ccc(C(=O)[C@@H]3CCCC[C@H]3C(=O)Nc3cnn4c3C(=O)NCC4)cc2)[nH]n1: “cumulative radioactivity recovery” 6.19% and 6.74% and 4.91% and 5.56% and 6.49% and 4.9% (human, urine; oral, 200 mg, 0-72 h; baseline: dose).
Cc1cc(C(=O)N[C@@H](CC(=O)NC(C)(C)C)C(=O)NCCNC(=O)c2cccc(-n3cccn3)c2)no1: “mean residence time” 0.39 h (mouse, plasma; intravenous, 0.1 mg/kg).
Under “molar extinction coefficient”, CCCCN1C(=O)c2cccc3c(NCCCCN4CCOCC4)ccc(c23)C1=O is recorded as 8600 M⁻¹ cm⁻¹ (DMSO).
[123I]c1ccc2nc(-c3ccc(-n4ccnn4)nc3)cn2c1 gave a tissue uptake of 0.687 ± 0.346 %ID/g (Wistar rat, male, adrenals; intravenous, 4 MBq, 3 h).
For C/C(N)=N/C(=N\S(=O)(=O)c1ccc(C(F)(F)F)cc1)N1C[C@H](c2ccccc2)C(c2ccc(Cl)cc2)=N1, the bioavailability was 40% (beagle dog, plasma; oral, 12 mg/kg).
The MRT(0-inf) of CCCC[C@H](OC(C)=O)c1ccccc1C(=O)O is reported as 2.9 ± 0.64 h (Sprague-Dawley rats, both sexes, whole blood; intravenous, 20 mg/kg single dose).
For CCN(CC)c1ccc2c(c1)O[B-]1(c3ccccc3C#N)OC(=O)C(c3ccccc3)=N[N+]1=C2 (stereo not shown), “molar absorption coefficient” read 54000 M⁻¹ cm⁻¹ (toluene).
With CN1CCC[C@]1(C)/C=C/S(=O)(=O)NC(=O)Nc1c2c(cc3c1C(O)CC3)CCC2 (stereo partly shown) the AUC(0-t) was 525 µg·h/mL (human, plasma; oral, 100 mg twice daily of parent drug, day 14, metabolite of dosed drug).

Excerpt of the above:
O=C([O-])CN1CCN(CC(=O)[O-])CCN(C(CO)C(O)CO)CCN(CC(=O)[O-])CC1.[Dy+3] (stereo not shown) — result for “total plasma clearance”: 0.11 L/h/kg (ICP-MS; female cynomolgus monkey, plasma; intravenous bolus, 0.1 mmol/kg, lanthanide mixture, geometric mean).
CCc1cnc(NC(=O)c2cc(S(=O)(=O)N3CCOCC3)ccc2N(C)C2CCCC2)s1 has a Glucose of 240 mg/dL (mouse, serum; 10 mg/kg, 3 doses).
For COc1ccc2c(c1)CN(C(=O)CCN1CCC(Cc3ccccc3)CC1)CCS2, “maximum QTcB change” read 50.8 ms (paroxysmal AF patients; oral, 540 mg, 90 min; baseline: baseline).
